Results pooled from the literature.
Compare with care: the assays were run in different laboratories. “And” joins repeats or separate records; there may be more than shown. ± gives the spread as reported.

| Compound | assay | test system | setting | scale | quantity | value |
| --- | --- | --- | --- | --- | --- | --- |
| O=[N+]([O-])[O-].O=c1c(C=NN=C([S-])Nc2ccccc2)coc2ccccc12.[Cu+2].c1cnc2c(c1)c1nccnc1c1cccnc12 | oxidative DNA cleavage | supercoiled pUC19 DNA | 100 µM, 30 min, added: ascorbic acid 50 µM, DNA 40 µM | – | supercoiled DNA form | 40% |
| COc1ccccc1-c1n[nH]c2nc(N[C@H]3CC[C@H](NS(=O)(=O)CC(C)C)CC3)ncc12 | bead binding, competition bead pull-down, refers to: LMJF.35.4420 | Leishmania donovani extract | 10 µM | baseline: vehicle | relative abundance | 0.96 |
| CC(C)CC1NCCc2cc(O)c(O)cc21 (stereo not drawn) | ABTS scavenging | – | 10 min, dark | – | IC50 | 14.1 µM |
| C(=N\Cc1cc(C/N=C/c2ccc[nH]2)cc(-c2cc(C/N=C/c3ccc[nH]3)cc(C/N=C/c3ccc[nH]3)c2)c1)/c1ccc[nH]1 | – | hACE2 mice, bronchoalveolar lavage fluid | dose not given | baseline: control | IL-18 level | decreased |
| CC(C)C[C@@H]1NC(=O)[C@@H](Cc2c[nH]c3ccccc23)NC(=O)[C@H](CCCNC(=N)N)NC(=O)[C@@H](CCC(=O)O)NC(=O)[C@H](CCC(N)=O)NC(=O)[C@@H](CCC(=O)O)NC(=O)[C@H](CCCNC(=N)N)NC(=O)[C@@H](Cc2c[nH]c3ccccc23)NC1=O | Luminex, refers to: IL-17 | LDLr-/- mice, Western diet, liver | dose not given, 4 weeks | – | cytokine level | 55 ± 16 pg/g tissue |
| CCCC[C@@H]1NC(=O)[C@H](Cc2ccc(O)cc2)NC(=O)[C@@H]2CCCN2C(=O)[C@H](CC(=O)O)NC(=O)[C@H](C)NC(=O)[C@H](Cc2ccccc2)NC(=O)[C@@H]2CSCCC(=O)N3CN(CN(C3)C(=O)CCSC[C@@H](C(=O)N[C@@H](C)C(N)=O)NC1=O)C(=O)CCSC[C@H](NC(C)=O)C(=O)N[C@@H](CC(C)(C)C)C(=O)N1CCC[C@H]1C(=O)N[C@@H](CCC(=O)O)C(=O)N[C@H](CCCCNC(=O)CCc1cn(CCOCCOCCOCCN(CCOCCOCCOCCC(=O)N[C@H]3CSCCC(=O)N4CN5CN(C4)C(=O)CCSC[C@H](NC(=O)[C@@H](CC(=O)O)NC(=O)[C@H](Cc4cccc6ccccc46)NC(=O)[C@@H]4CCCN4C3=O)C(=O)N[C@@H](CCSC)C(=O)N[C@@H](CCCCNC(=N)N)C(=O)N[C@@H](CC(=O)O)C(=O)N[C@@H](Cc3c[nH]c4ccccc34)C(=O)N[C@@H](CO)C(=O)N[C@@H]([C@@H](C)O)C(=O)N3CCC[C@H]3C(=O)N3C[C@H](O)C[C@H]3C(=O)N[C@@H](Cc3c[nH]c4ccccc34)C(=O)N[C@H](C(N)=O)CSCCC5=O)CCOCCOCCOCCn3cc(CCC(=O)NCCCC[C@H]4NC(=O)[C@H](CCC(=O)O)NC(=O)[C@@H]5CCCN5C(=O)[C@H](CC(C)(C)C)NC(=O)[C@@H](NC(C)=O)CSCCC(=O)N5CN6CN(C5)C(=O)CCSC[C@H](NC(=O)[C@H](Cc5ccc(O)cc5)NC(=O)[C@@H]5CCCN5C4=O)C(=O)N[C@@H](Cc4ccccc4)C(=O)N[C@@H](C)C(=O)N[C@@H](CC(=O)O)C(=O)N4CCC[C@H]4C(=O)N[C@@H](Cc4ccc(O)cc4)C(=O)N[C@@H](CCCC)C(=O)N[C@H](C(=O)N[C@@H](C)C(N)=O)CSCCC6=O)nn3)nn1)C(=O)N1CCC[C@H]1C(=O)N[C@@H](Cc1ccc(O)cc1)C(=O)N2 | NanoString, refers to: Cd1d1-mRNA | mouse bearing MC38-Nectin-4 tumour, circulating white blood cells | 5 mg/kg, 24 h after dosing, unit not given | baseline: vehicle | mRNA level | 1.62 |
| CCN(Cc1ccccc1)C(=O)CCc1nc(CN2CCN(C(=O)Cc3ccc(OC)c(OC)c3)CC2)no1 | current clamp | DRG neurons, naive rat | 10 µM | – | resting membrane potential | -59.4 ± 2.15 mV |
| COc1ccccc1-c1n[nH]c2nc(NC3CCN(C(=O)Cc4ccc(F)cc4F)CC3)ncc12 | bead binding, competition bead pull-down, refers to: LINJ.36.0780 | Leishmania donovani extract | 10 µM | baseline: vehicle | relative abundance | 0.91 |
| CC(C)[C@@H]1NC(=O)[C@@H]2CCCN2C(=O)[C@@H](C(C)C)NC(=O)[C@H]2CCCN2C(=O)[C@H](C(C)C)NC(=O)[C@@H]2CCCN2C(=O)[C@@H](C(C)C)NC(=O)[C@H]2CCCN2C(=O)[C@H](C(C)C)NC(=O)[C@@H]2CCCN2C(=O)[C@@H](C(C)C)NC(=O)[C@H]2CCCN2C1=O | – | sheep lipid bilayer | 10 µM, pH 7.4, 23 °C, added: 0.1 M K+ vs Li chloride | – | bi-ionic potential | -106 mV |
| CCCCOc1nc(N)c2[nH]c(=O)n(CCCN(CCCN3CCOCC3)Cc3cccc(CC(=O)OC)c3)c2n1 | refers to: IFN-regulated genes | human, healthy, plasma | inhalation, 15 µg single, target engagement | – | CXCL10 level | no effect |
| O=C(O)c1ccc(-c2nc(-c3ccccc3Cl)c3sccn23)cc1 | – | C57BL/6 mice, 5-fluorouracil treated | dose not given, day 17 | baseline: RBC | reticulocytes | 17.4% and 17.1% and 12.2% and 12.4% |
| CCCCCCCCCCCC1CC(=O)NC(CC(N)=O)C(=O)NC(Cc2ccc(O)cc2)C(=O)NC(CC(N)=O)C(=O)NC(CCC(N)=O)C(=O)N2CCCC2C(=O)NC(CC(N)=O)C(=O)NC(CO)C(=O)N1 (stereo not drawn) | calcein leakage | DOPC/DOPG/CHOL liposomes | concentration not given, added: 20 wt% PEG-8000 | – | fusion time constant | 8 ± 2 min |
| Cc1ccc(S(=O)(=O)N2CC2C(=O)N(C)C)cc1 (stereo not drawn) | – | mouse, Lewis lung carcinoma | intraperitoneal, 170 mg/kg, 16 doses, day 16 | – | tumour volume | 1120 mm3 |
| Cc1ccc(C2=CC(C)(C)Oc3ccc(-c4ccc(-c5ccc(C(=O)O)cc5)[nH]4)cc32)cc1 | – | CD1 mouse, male | 20 mg/kg, 1 day after treatment, dosed for 2 weeks | – | testis weight | 0.117 g and 0.0643 g and 0.105 g and 0.108 g and 0.0871 g |
| CN1CC[C@@]23c4c5ccc(O)c4C[C@@H]2[C@H](O)C=C[C@@H]3[C@@H]1C5 | warm-water tail withdrawal | C57BL/6J mouse | i.c.v., 30 and 100 nmol, 55 °C, added: naloxone 10 mg/kg i.p. pretreatment | – | antinociception | inhibited |

For quick reference, copied from above:
| Compound | assay | test system | setting | scale | quantity | value |
| --- | --- | --- | --- | --- | --- | --- |
| CCN(Cc1ccccc1)C(=O)CCc1nc(CN2CCN(C(=O)Cc3ccc(OC)c(OC)c3)CC2)no1 | current clamp | DRG neurons, naive rat | 10 µM | – | resting membrane potential | -59.4 ± 2.15 mV |
| O=[N+]([O-])[O-].O=c1c(C=NN=C([S-])Nc2ccccc2)coc2ccccc12.[Cu+2].c1cnc2c(c1)c1nccnc1c1cccnc12 | oxidative DNA cleavage | supercoiled pUC19 DNA | 100 µM, 30 min, added: ascorbic acid 50 µM, DNA 40 µM | – | supercoiled DNA form | 40% |
